{"data": "Measured values gathered from unrelated publications", "note": "Parts stem from different laboratories: compare values within a part only. Changes are numbered by the printed parent chain."}
{"data": "Study 1", "target": "Histone acetyltransferase KAT6A, both winged helices, GST fusion (KAT6A, Homo sapiens, UniProt Q92794, residues 1-181)", "method": "protein binding microarray", "molecule type": "double-stranded DNA, one strand shown", "medium": "in vitro", "concentration": "not given", "notes": "8-mer, flanks averaged, mean of 2 arrays, mostly near background", "reference": "not given", "reading": "higher = stronger binding", "Target sequence (chain)": "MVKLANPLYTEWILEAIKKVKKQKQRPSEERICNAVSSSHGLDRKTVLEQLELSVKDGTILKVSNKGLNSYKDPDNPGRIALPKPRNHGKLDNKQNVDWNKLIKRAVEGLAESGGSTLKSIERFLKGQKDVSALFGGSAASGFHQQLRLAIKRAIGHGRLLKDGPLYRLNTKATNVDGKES"}
{"Oligonucleotide": "ACTAGGTC", "E-score": 0.0408}
{"Oligonucleotide": "AAAATAAC", "E-score": -0.0174}
{"Oligonucleotide": "CCATACGG", "E-score": 0.232}
{"Oligonucleotide": "TAAGGAAA", "E-score": -0.231}
{"Oligonucleotide": "AAGCTGTC", "E-score": -0.081}
{"data": "Study 2", "target": "Sal-like protein 4, full length isoform B (SALL4, Homo sapiens, UniProt Q9UJQ4-2, residues 1-616)", "method": "universal PBM", "molecule type": "double-stranded DNA, one strand shown", "medium": "in vitro", "concentration": "not given", "notes": "8-mer, flanks averaged, mean of replicates", "reading": "higher = stronger binding", "Target sequence (chain)": "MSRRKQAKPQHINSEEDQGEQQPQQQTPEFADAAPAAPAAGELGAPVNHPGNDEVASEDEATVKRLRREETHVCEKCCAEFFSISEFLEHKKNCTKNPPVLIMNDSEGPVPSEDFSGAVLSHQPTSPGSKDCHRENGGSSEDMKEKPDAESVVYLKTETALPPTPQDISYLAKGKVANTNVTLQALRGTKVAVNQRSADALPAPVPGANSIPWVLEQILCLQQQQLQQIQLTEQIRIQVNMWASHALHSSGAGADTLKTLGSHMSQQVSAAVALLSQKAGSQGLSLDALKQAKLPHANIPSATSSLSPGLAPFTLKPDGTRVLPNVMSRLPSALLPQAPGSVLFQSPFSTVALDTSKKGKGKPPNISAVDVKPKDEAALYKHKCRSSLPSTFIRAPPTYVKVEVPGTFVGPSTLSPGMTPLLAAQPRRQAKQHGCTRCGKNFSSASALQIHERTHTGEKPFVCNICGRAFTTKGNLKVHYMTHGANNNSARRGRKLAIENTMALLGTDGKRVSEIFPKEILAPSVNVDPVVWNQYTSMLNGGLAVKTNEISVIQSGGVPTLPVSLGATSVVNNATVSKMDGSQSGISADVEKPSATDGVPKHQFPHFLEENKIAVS"}
{"Oligonucleotide": "CCCGACCG", "E-score": -0.32}
{"Oligonucleotide": "CCCTAGAG", "E-score": -0.251}
{"Oligonucleotide": "ATATGCGG", "E-score": 0.263}
{"Oligonucleotide": "CTCTAGTC", "E-score": -0.191}
{"Oligonucleotide": "AGGAGTTG", "E-score": 0.00223}
{"data": "Study 3", "target": "CCNB3, cyclin fold, Cln2 fusion (human)", "method": "yeast growth competition, sequencing", "medium": "yeast", "notes": "weak parent motif", "reference": "not given", "reading": "higher = stronger binding", "parent": "WEE1 docking peptide (human); HKTFRKLRLFDTP; partner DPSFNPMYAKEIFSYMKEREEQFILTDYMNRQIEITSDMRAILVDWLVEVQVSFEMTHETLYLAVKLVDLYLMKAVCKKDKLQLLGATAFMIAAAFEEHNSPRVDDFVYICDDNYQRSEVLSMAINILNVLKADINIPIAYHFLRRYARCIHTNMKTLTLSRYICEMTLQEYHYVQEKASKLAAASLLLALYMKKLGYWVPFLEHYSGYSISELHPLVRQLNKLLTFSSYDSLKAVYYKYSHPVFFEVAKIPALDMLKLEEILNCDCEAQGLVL"}
{"Substitution": "P13N", "normalised enrichment score": 0.401}
{"Substitution": "K2H", "normalised enrichment score": 0.0705}
{"Substitution": "R5H", "normalised enrichment score": 0.847}
{"Substitution": "H1L", "normalised enrichment score": -0.547}
{"data": "Further values, each from its own experiment"}
{"Substance": "PhoQ, residues 284 288 289 292 302 303 AGHLVA", "target": "PhoP, residues 12 14 15 18 19 LYHSL (Escherichia coli, UniProt P23836)", "assay": "Sort-seq, refers to: YFP reporter", "test system": "E. coli", "setting": "PhoQ-PhoP variant library, with: 10 µM Mg2+", "how to read": "reference: high Mg2+ state, higher = stronger signaling", "endpoint": "fold induction", "result": 3.13}
{"note": "Excerpt of the above (study 1):"}
{"Oligonucleotide": "AAAATAAC", "E-score": -0.0174}
{"Oligonucleotide": "CCATACGG", "E-score": 0.232}
{"Oligonucleotide": "TAAGGAAA", "E-score": -0.231}
